Results from different studies.

Structure (SMILES)	test	system	conditions	how to read	quantity	value
Cc1cc(Nc2ccc(S(F)(F)(F)(F)F)cc2)n2nc(C(C)(F)F)nc2n1		Plasmodium vivax malaria patients	oral, 800 mg		patients with eye disorders	0%
Cc1ccc(C(=O)N(CCCN)C(c2nc3snc(C)c3c(=O)n2Cc2ccccc2)C(C)C)cc1 (stereo not drawn)		patients	intravenous, 16 mg/day		patients with grade ≥3 mucosal inflammation	22%
COc1cc(Nc2ncc3c(n2)-c2ccc(Cl)cc2C(c2c(F)cccc2OC)=NC3)ccc1C(=O)O		cancer patients	oral, dose not given, all grades any attribution, with: pembrolizumab		patients with oral mucositis	29%
Cc1cc(-c2nnc(N)nc2-c2ccc(F)cc2)cc(Cl)n1	refers to: Colitis	IO-naive mCRPC patients, male	oral, dose not given, treatment-related, grade 1		patients with immune-mediated AE	0%
O=C(Nc1nc2cccc(-c3ccc(CN4CCS(=O)(=O)CC4)cc3)n2n1)C1CC1		rheumatoid arthritis patients	oral, 100 mg twice daily, 4 weeks, regardless of relatedness		patients with gingival bleeding	0%
C=CC[C@@H]1/C=C(\C)C[C@H](C)C[C@H](OC)[C@H]2O[C@@](O)(C(=O)C(=O)N3CCCC[C@H]3C(=O)O[C@H](/C(C)=C/[C@@H]3CC[C@@H](O)[C@H](OC)C3)[C@H](C)[C@@H](O)CC1=O)[C@H](C)C[C@@H]2OC		kidney transplant recipients, CYP3A5*1/*1 or *1/*3 rapid metabolizers, whole blood	oral, dose not given		patients with subtherapeutic C0	67%
CCO[C@H]1CCN(Cc2c(OC)cc(C)c3[nH]ccc23)[C@H](c2ccc(C(=O)O)cc2)C1	refers to: Pyrexia	PNH patients, active haemolysis	oral, 100 mg twice daily, extension phase		patients with adverse event	20%
C[C@@H](Nc1cc(F)cc(F)c1)c1cc(C(=O)N(C)C)cc2c(=O)cc(N3CCOCC3)oc12	refers to: Sepsis	advanced solid tumour patients	oral, dose not given, dose finding		patients discontinuing for AE	0%
C=CC(=O)Nc1cc(Nc2nccc(-c3cn(C)c4ccccc34)n2)c(OC)cc1N(C)CCN(C)C	refers to: treatment-related grade ≥3 Nausea	EGFR-mutant MET-altered NSCLC	oral, dose not given, all		patients with adverse events	3%
C=CC(=O)NC1CCN(c2ncc3ncnc(Nc4ccc(Oc5ccc6c(c5)ncn6C)c(C)c4)c3n2)CC1		male patients	oral, dose not given, treatment-related adverse events		patients with abdominal discomfort	0%
COc1ccc([C@@H](O)c2cc(-c3ncnc4cc(N5CCOCC5)ccc34)c(F)cc2Cl)nn1		locally advanced rectal cancer patients	50 mg, drug-related adverse events, with: capecitabine and radiotherapy		patients with investigation abnormalities	0%
CCOc1c([C@H](C)n2nc(C)c3c(N)ncnc32)cc(Cl)c(F)c1[C@@H]1CNC(=O)C1	refers to: QTcF change ≤30 ms	previously treated B-cell malignancy	oral, 20 mg once daily, overall population	relative to: baseline	patients	100%
CNC(=O)c1ccc(-c2cnc3ncc(Cc4ccc5ncccc5c4)n3n2)cc1F	refers to: Hypoalbuminemia, all grades	hepatocellular carcinoma patients	oral, 600 mg twice daily, expansion cohort, any causality		patients with adverse event	0%
CC(C)C[C@H](NC(=O)[C@@H](Cc1c[nH]c2ccccc12)NC(=O)[C@H](Cc1ccc(O)cc1)NC(=O)[C@H](CO)NC(=O)[C@H](Cc1c[nH]c2ccccc12)NC(=O)[C@H](Cc1c[nH]cn1)NC(=O)[C@@H]1CCC(=O)N1)C(=O)N[C@@H](CCCNC(=N)N)C(=O)N1CCC[C@H]1C(=O)NCC(N)=O		Chinese CPP children, overall	intramuscular, 22.5 mg, 12 months, day 1, month 6		patients with adverse events	89.4%
FC(F)(F)c1ccc(CNc2ccc(Cc3c[nH]c4ncc(Cl)cc34)cn2)cn1	refers to: alanine aminotransferase increased	advanced solid tumour patients	oral, 1000 mg/day, all grades, all cohorts		patients with treatment-related adverse event	11%
COc1cc2nccc(Oc3ccc(NC(=O)c4cc5c(n(-c6ccccc6)c4=O)CCCC5=O)nc3)c2cc1OC		patients with relapsed/refractory AML	oral, 10 mg once daily		TEAEs, drug-related, patients with	28.6%
C=CCN1CC(=O)N2[C@@H](Cc3ccc(O)cc3F)C(=O)N(Cc3cccc(N4CC(N5CCN(CC)CC5)C4)n3)C[C@@H]2N1C(=O)NCc1ccccc1		advanced solid tumour patients	10 mg twice daily, treatment-related, any grade		patients with ALT increased	0%
Cc1cc(NC2CCN(C(=O)OC3CCN(C(=O)/C=C/CN(C)C)C3)CC2)n2ncc(C(C)C)c2n1 (stereo not drawn)	CTCAE v4.0, refers to: Hypotension	patients with advanced solid tumours	oral, dose not given, all schedules, grade 3 or higher		patients with TEAE	2%
